Assay results gathered from unrelated publications.
Protocols differ between the studies behind these lines. Numbers after ± are the reported error.
CNR1: Cannabinoid receptor 1 (CNR1, Homo sapiens, UniProt P21554)
Sequence of UniProt P21554 (whole entry, looked up): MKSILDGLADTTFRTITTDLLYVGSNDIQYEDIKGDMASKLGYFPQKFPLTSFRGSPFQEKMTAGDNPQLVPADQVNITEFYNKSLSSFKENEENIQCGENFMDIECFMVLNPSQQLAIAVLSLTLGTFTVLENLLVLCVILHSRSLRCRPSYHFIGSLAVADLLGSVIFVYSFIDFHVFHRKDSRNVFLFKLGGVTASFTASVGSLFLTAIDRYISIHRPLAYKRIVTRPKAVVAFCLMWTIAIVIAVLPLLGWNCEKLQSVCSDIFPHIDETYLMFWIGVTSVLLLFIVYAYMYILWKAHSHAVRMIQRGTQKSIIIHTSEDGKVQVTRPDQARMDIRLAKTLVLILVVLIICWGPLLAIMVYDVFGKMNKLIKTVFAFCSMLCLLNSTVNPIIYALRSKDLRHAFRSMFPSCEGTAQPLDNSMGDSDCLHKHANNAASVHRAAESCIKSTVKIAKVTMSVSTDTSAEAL
GLP1R: Glucagon-like peptide 1 receptor (GLP1R, Homo sapiens, UniProt P43220)
Sequence of UniProt P43220 (whole entry, looked up): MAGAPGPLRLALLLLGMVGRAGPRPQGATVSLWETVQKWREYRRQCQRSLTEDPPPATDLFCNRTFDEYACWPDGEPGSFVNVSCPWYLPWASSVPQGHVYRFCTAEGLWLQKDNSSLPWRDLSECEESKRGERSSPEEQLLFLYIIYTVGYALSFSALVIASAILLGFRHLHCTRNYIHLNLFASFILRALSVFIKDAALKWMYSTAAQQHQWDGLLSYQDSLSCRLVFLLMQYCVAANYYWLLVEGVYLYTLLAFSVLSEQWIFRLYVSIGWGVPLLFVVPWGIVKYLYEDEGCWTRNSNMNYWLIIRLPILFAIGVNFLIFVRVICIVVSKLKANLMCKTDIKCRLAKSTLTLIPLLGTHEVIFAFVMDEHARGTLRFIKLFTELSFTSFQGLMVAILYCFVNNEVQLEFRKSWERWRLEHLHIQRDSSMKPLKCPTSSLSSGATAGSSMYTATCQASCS
Sequence of UniProt P32214 (whole entry, looked up): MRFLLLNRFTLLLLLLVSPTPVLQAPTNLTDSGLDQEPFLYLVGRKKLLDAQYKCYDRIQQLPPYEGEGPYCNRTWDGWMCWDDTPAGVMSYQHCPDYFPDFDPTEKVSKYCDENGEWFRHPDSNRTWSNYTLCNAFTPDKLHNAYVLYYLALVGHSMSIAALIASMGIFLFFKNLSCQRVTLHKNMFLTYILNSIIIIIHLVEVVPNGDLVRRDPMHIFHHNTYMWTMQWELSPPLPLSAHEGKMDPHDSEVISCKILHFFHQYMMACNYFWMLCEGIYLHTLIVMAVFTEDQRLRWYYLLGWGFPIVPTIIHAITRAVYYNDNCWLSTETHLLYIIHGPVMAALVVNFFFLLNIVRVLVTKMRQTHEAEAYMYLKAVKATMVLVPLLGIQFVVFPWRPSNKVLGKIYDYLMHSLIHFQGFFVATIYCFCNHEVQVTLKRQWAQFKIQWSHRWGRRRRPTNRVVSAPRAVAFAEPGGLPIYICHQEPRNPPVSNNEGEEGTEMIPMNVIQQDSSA
Sequence of UniProt P47871 (whole entry, looked up): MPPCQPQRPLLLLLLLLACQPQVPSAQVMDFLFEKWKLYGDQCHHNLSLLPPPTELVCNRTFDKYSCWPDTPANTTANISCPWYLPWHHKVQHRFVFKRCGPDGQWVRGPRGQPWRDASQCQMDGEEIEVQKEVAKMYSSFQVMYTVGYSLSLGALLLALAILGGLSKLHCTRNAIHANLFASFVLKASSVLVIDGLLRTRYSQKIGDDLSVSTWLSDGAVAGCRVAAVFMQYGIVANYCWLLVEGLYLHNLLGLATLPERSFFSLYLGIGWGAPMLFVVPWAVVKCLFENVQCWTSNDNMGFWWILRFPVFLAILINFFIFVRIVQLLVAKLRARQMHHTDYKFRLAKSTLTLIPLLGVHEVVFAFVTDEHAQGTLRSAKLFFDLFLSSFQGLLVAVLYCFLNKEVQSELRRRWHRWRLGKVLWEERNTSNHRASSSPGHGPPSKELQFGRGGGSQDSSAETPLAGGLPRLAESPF
Sequence of UniProt Q9UKP6 (whole entry, unmodified, looked up): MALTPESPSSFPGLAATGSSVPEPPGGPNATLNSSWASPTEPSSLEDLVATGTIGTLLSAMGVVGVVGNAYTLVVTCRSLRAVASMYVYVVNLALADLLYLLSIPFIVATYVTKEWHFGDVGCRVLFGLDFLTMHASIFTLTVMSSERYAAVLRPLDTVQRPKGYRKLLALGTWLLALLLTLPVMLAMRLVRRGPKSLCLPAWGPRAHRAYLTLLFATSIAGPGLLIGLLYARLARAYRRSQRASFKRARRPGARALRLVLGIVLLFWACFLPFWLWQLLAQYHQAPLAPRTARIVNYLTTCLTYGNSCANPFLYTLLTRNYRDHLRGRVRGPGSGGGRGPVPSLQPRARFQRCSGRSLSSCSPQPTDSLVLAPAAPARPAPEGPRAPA
Sequence of UniProt Q8TDU6 (whole entry, looked up): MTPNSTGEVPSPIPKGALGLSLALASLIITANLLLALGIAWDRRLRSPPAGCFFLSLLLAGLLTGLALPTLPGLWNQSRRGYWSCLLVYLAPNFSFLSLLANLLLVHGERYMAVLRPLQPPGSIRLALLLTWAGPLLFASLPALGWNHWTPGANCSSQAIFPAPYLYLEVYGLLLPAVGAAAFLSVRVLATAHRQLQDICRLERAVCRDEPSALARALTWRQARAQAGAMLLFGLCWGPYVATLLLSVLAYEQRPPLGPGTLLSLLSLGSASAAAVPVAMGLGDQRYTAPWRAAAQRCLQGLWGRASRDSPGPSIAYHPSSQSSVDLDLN
Sequence of UniProt Q9JJ74 (whole entry, looked up): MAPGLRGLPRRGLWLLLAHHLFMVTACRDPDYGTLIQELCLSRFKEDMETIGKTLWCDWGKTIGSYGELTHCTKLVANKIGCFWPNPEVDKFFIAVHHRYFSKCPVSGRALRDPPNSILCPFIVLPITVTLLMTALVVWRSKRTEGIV
Sequence of UniProt P35869 (whole entry, looked up): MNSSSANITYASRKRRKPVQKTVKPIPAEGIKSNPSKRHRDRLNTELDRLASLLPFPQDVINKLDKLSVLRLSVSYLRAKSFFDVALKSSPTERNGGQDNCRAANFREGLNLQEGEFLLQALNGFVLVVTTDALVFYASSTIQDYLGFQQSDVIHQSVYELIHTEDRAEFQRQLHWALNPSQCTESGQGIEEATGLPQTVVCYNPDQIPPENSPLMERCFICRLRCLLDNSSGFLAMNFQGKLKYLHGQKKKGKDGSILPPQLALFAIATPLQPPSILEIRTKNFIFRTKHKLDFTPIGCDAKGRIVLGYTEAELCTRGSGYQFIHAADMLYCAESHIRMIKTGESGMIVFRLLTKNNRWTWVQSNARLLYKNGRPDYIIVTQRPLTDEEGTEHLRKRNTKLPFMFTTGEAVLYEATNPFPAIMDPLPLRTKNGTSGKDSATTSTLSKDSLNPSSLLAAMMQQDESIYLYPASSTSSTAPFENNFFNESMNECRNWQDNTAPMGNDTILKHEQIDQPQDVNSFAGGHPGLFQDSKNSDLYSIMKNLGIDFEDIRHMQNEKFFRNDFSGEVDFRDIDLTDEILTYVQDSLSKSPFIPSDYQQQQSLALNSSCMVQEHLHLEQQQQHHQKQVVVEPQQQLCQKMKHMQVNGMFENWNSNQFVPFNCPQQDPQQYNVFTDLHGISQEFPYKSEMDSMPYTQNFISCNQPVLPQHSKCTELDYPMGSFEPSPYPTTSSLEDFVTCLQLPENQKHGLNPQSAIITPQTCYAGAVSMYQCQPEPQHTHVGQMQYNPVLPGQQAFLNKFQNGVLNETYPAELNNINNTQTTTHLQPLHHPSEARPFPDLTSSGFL
Sequence of UniProt Q9GZQ4 (whole entry, looked up): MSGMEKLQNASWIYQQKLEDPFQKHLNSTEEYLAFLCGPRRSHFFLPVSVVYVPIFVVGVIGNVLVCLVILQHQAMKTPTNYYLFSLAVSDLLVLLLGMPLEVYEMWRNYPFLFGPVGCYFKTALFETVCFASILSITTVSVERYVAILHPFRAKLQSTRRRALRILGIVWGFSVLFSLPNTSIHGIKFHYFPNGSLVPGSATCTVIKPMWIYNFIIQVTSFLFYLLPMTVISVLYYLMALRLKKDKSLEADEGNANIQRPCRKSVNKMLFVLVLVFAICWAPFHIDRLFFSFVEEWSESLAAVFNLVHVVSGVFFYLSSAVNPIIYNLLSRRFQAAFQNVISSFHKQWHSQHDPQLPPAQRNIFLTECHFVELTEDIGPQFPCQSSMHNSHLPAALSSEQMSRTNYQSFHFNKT

| Structure (SMILES) | tested on | test | system | setting | endpoint | value |
| --- | --- | --- | --- | --- | --- | --- |
| CC(C)[C@H](NC(=O)[C@@H]1CSSC(C)(C)[C@H](NC(=O)[C@@H](N)CC(=O)O)C(=O)N[C@@H](Cc2ccccc2)C(=O)N[C@@H](Cc2c[nH]c3ccccc23)C(=O)N[C@@H](CCCCN)C(=O)N[C@@H](Cc2ccc(O)cc2)C(=O)N1)C(=O)O | UTS2R (Homo sapiens, UniProt Q9UKP6, F131A) | IP1 accumulation, agonist, HTRF | HEK293T | 1 h, 37 °C, F131A mutant, 3.33 | EC50 | 2.51 nM |
| CCCCCn1ccc(C(=O)N[C@@H](C)c2ccccc2)n1 | CNR1 | calcium signal, agonist | – | – | EC50 | 1250 nM |
| CC(C)C[C@H](NC(=O)[C@H](Cc1ccc(O)cc1)NC(=O)[C@H](CO)NC(=O)[C@H](CO)NC(=O)[C@@H](NC(=O)[C@H](CC(=O)O)NC(=O)[C@H](CO)NC(=O)[C@@H](NC(=O)[C@H](Cc1ccccc1)NC(=O)[C@@H](NC(=O)CNC(=O)[C@H](CCC(=O)O)NC(=O)[C@H](C)NC(=O)[C@@H](N)Cc1c[nH]cn1)[C@@H](C)O)[C@@H](C)O)C(C)C)C(=O)N[C@@H](CCC(=O)O)C(=O)NCC(=O)N[C@@H](CCC(N)=O)C(=O)N[C@@H](C)C(=O)N[C@@H](C)C(=O)N[C@@H](CCCCN)C(=O)N[C@@H](CCC(=O)O)C(=O)N[C@@H](Cc1ccccc1)CN(CC(=O)N[C@@H](C)C(=O)N[C@@H](Cc1c[nH]c2ccccc12)CN(CC(=O)N[C@H](C(=O)N[C@@H](CCCCN)CN(CC(=O)N[C@@H](CCCNC(=N)N)C(=O)N[C@@H](CCCCN)CN(CC(N)=O)S(C)(=O)=O)S(C)(=O)=O)C(C)C)S(=O)(=O)CC(C)C)S(=O)(=O)CC(C)C | GLP1R | reporter gene, agonist, luciferase | – | – | EC50 | > 1000 nM |
| O=C1NC2(CC2)COc2ncc(F)cc2[C@H]2COCCN2c2ccn3ncc1c3n2 | – | – | Sprague-Dawley rat, male, spleen | oral, 2.5 mg/kg/day, 4 weeks dosing, end of recovery | organ-to-brain weight ratio | 48.3 ± 4.69% |
| CC(CCC(=O)O)C1CCC2C3C(O)CC4CC(OS(=O)(=O)O)CCC4(C)C3CC(O)C12C (stereo not shown) | GPBAR1 (Homo sapiens, UniProt Q8TDU6) | agonist | – | – | EC50 | > 200000 nM |
| O=C(O)CCn1c(=O)oc2cc(Cl)c(Cl)cc21 | AHR (Homo sapiens, UniProt P35869) | agonist | – | – | EC50 | 20000 nM |
| CCCCCn1ccc(C(=O)NC(C)(C)c2ccc(CCC(N)=O)cc2)n1 | CNR1 | calcium signal, agonist | – | – | EC50 | > 10000 nM |
| CCCCCCCCCCCCCCCCCC(=O)NC[C@H]1CC[C@H](C(=O)N[C@@H](CCC(=O)NCCCOCCOCCOCCCNC(=O)COCC(=O)N[C@@H](Cc2ccc(O)cc2)C(=O)NC(C)(Cc2ccccc2)C(=O)N[C@@H](CC(C)C)C(=O)N[C@@H](CCCC)C(=O)N[C@@H](CCCNC(=N)N)C(=O)N2CCC[C@H]2C(=O)N[C@@H](CCCNC(=N)NC)C(=O)N[C@@H](CC(N)=O)C(N)=O)C(=O)O)CC1 (stereo partly shown) | NMUR2 (Homo sapiens, UniProt Q9GZQ4) | inositol phosphate, agonist, TR-FRET | – | – | EC50 | 9.9 nM |
| CC[C@H](C)[C@@H]1NC(=O)[C@H](CC(N)=O)NC(=O)[C@@H]2CCCN2C(=O)[C@@H](NC(=O)[C@H](CC(N)=O)NC(=O)[C@@H](N)CCC(N)=O)COC(=O)[C@H](CCSC)NC(=O)[C@H](Cc2c[nH]c3ccccc23)NC(=O)CN(CCC(N)=O)C(=O)CNC(=O)[C@H](Cc2ccccc2)NC1=O | Fsr quorum sensing protein (Enterococcus faecalis, UniProt A0ACD6TCR9) | Fsr quorum sensing, agonist, β-galactosidase reporter | – | – | EC50 | > 10000 nM |
| CCCCCCCCCCCCCCCC(=O)N[C@@H](CCC(=O)NCCCC[C@H](NC(=O)[C@H](CC(=O)O)NC(=O)[C@H](CO)NC(=O)[C@@H](NC(=O)[C@H](Cc1ccccc1)NC(=O)[C@@H](NC(=O)CNC(=O)[C@H](CCC(N)=O)NC(=O)[C@H](C)NC(=O)[C@H](Cc1c[nH]cn1)NCC(F)(F)F)[C@@H](C)O)[C@@H](C)O)C(=O)N[C@@H](CO)C(=O)N[C@@H](CCCCN)C(=O)N[C@@H](Cc1ccc(O)cc1)C(=O)N[C@@H](CC(C)C)C(=O)N[C@@H](CC(=O)O)C(=O)N[C@@H](CCC(=O)O)C(=O)N[C@@H](CCCNC(=N)N)C(=O)N[C@@H](C)C(=O)N[C@@H](C)C(=O)N[C@@H](CCC(N)=O)C(=O)N[C@@H](CC(=O)O)C(=O)N[C@@H](Cc1ccccc1)C(=O)N[C@H](C(=O)N[C@@H](CCC(N)=O)C(=O)N[C@@H](Cc1c[nH]c2ccccc12)C(=O)N[C@@H](CC(C)C)C(=O)N[C@@H](CC(C)C)C(=O)N[C@@H](CC(=O)O)C(=O)NCC(=O)NCC(=O)N1CCC[C@H]1C(=O)N[C@@H](CO)C(=O)N[C@@H](CO)C(=O)NCC(=O)N[C@@H](C)C(=O)N1CCC[C@H]1C(=O)N1CCC[C@H]1C(=O)N1CCC[C@H]1C(=O)N[C@@H](CO)C(N)=O)C(C)C)C(=O)O | Glucagon receptor (GCGR, Homo sapiens, UniProt P47871) | reporter gene, agonist, luciferase | – | – | EC50 | 0.00398 nM |
| CC[C@H](C)[C@H](NC(=O)[C@H](Cc1ccccc1)NC(=O)[C@H](CCC(=O)O)NC(=O)[C@H](CCCCN)NC(=O)[C@H](C)NC(=O)[C@H](C)NC(=O)[C@H](CCC(N)=O)NC(=O)CNC(=O)[C@H](CCC(=O)O)NC(=O)[C@H](CC(C)C)NC(=O)[C@H](Cc1ccc(O)cc1)NC(=O)[C@H](CO)NC(=O)[C@H](CO)NC(=O)[C@@H](NC(=O)[C@H](CC(=O)O)NC(=O)[C@H](CO)NC(=O)[C@@H](NC(=O)[C@H](Cc1ccccc1)NC(=O)[C@@H](NC(=O)CNC(=O)[C@H](CCC(=O)O)NC(=O)[C@H](C)NC(=O)[C@H](Cc1c[nH]cn1)NC(C)=O)[C@@H](C)O)[C@@H](C)O)C(C)C)C(=O)N[C@@H](C)C(=O)N[C@@H](Cc1c[nH]c2ccccc12)CN(CC(=O)N[C@H](C(=O)N[C@@H](CCCCN)CN(CC(=O)N[C@@H](CCCNC(=N)N)C(=O)N[C@@H](CCCCN)CN(CC(N)=O)S(C)(=O)=O)S(C)(=O)=O)C(C)C)S(=O)(=O)CC(C)C | GLP1R | reporter gene, agonist, luciferase | – | – | EC50 | 157 nM |
| CCCCCn1ccc(C(=O)NC(C)(C)c2ccc(CNC(C)=O)cc2)n1 | CNR1 | β-arrestin recruitment, agonist | – | – | EC50 | 186 nM |
| CC[C@H](C)[C@H](NC(=O)[C@H](C)NC(=O)CNC(=O)[C@H](Cc1ccccc1)NC(=O)[C@H](CC(N)=O)NC(=O)[C@H](CC(N)=O)NC(=O)[C@H](CO)NC(=O)[C@H](CO)NC(=O)[C@H](Cc1c[nH]cn1)NC(=O)[C@@H](NC(=O)[C@H](CC(C)C)NC(=O)[C@H](Cc1ccccc1)NC(=O)[C@H](CC(N)=O)NC(=O)[C@H](C)NC(=O)[C@H](CC(C)C)NC(=O)[C@H](CCCNC(=N)N)NC(=O)[C@H](CCC(N)=O)NC(=O)[C@@H](NC(=O)[C@H](C)NC(=O)[C@@H]1CSSC[C@H](NC(=O)[C@H](CCCCN)NC(=O)[C@H](CCCNC(=N)N)NC(=O)[C@H](CCCCN)NC(=O)[C@H](CCC(=O)O)NC(=O)[C@@H](NC(=O)[C@H](CCC(N)=O)NC(=O)[C@H](Cc2c[nH]cn2)NC(=O)[C@H](CO)NC(=O)[C@H](CCC(=O)O)NC(=O)[C@@H](NC(=O)[C@@H]2CCCN2C(=O)[C@@H](N)[C@@H](C)O)[C@@H](C)CC)C(C)C)C(=O)N[C@@H](CC(N)=O)C(=O)N[C@@H]([C@@H](C)O)C(=O)N[C@@H](C)C(=O)N[C@@H]([C@@H](C)O)C(=O)N1)[C@@H](C)O)C(C)C)C(=O)N[C@@H](CC(C)C)C(=O)N[C@@H](CO)C(=O)N[C@@H](CO)C(=O)N[C@H](C(=O)N[C@@H](CC(N)=O)C(=O)N[C@H](C(=O)NCC(=O)N[C@@H](CO)C(=O)N[C@@H](CC(N)=O)C(=O)N[C@H](C(=O)N[C@@H](Cc1ccc(O)cc1)C(N)=O)[C@@H](C)O)C(C)C)[C@@H](C)O | Calcr/Ramp1 (Rattus norvegicus, UniProt P32214+Q9JJ74) | cAMP accumulation, agonist | COS-7, transfected | – | EC50 | 8.71 nM |
